# Results from different studies.
# Protocols differ between the studies behind these lines. Several values in a cell are separate wells, animals, samples, runs or records. Numbers after ± are the reported error.
SMILES,test,system,setting,scale,endpoint,result
CCCCN1C(=O)c2cccc3c(NCCCN4CCOCC4)ccc(c23)C1=O,,water,pH 6.0,,Stokes shift,102 nm
COc1cc(N2CCN(C(=O)C3CCCN3)CC2)ccc1Nc1ncc(Cl)c(Nc2ccccc2P(C)(C)=O)n1 (centres unmarked),,"nude mice, NCI-H3122 xenograft","intraperitoneal, 10 mg/kg every other day, day 16",,body weight,27.8 g and 24.9 g and 23.2 g and 28.1 g and 25.2 g
COc1ccc2c(c1)CN(C(=O)CCN1CCC(Cc3ccccc3)CC1)CC[S+]2[O-] (centres unmarked),,human plasma,250 ng/mL,,fu,0.139
Nc1ncnc2[nH]c(/C=C/c3ccc(F)cc3)nc12,HPLC,solution,after 1 h light exposure,,purity,100%
CN1C(=O)[C@@H](Cc2ccc(O)c(I)c2)NC(=O)CNC(=O)[C@H](Cc2ccc3ccccc3c2)NC(=O)[C@H](CCCNC(=N)N)NC(=O)[C@H]1CCCNC(=O)c1ccc(CNC(=O)CN2CCN(CC(=O)O)CCN(CC(=O)O)CCN(CC(=O)O)CC2)cc1 [lutetium-177 labelled],1,"human, extrapolated from mouse, Lower large intestine wall",,,total absorbed dose,0.044 mGy/MBq
[123I]c1ccc2nc(-c3ccc(-n4ccnn4)nc3)cn2c1,,"male Wistar rat, liver","intravenous, 4 MBq, 24 h",,tracer uptake,0.032 %ID/g
C/C(N)=N/C(=N\S(=O)(=O)c1ccc(C(F)(F)F)cc1)N1C[C@H](c2ccccc2)C(c2ccc(Cl)cc2)=N1,,"male C57BL/6 mouse, lung","intravenous, 5 mg/kg",,Cmax,6540 ng/mL
CC[C@H](C)[C@@H]1NC(=O)[C@H](Cc2ccc(O)cc2)NC(=O)CCCSC[C@@H](C(=O)N(CC(=O)N[C@@H](CC(C)C)C(=O)NCC(N)=O)Cc2ccc(F)cc2)NC(=O)[C@H](CC(N)=O)NC(=O)[C@H](CCC(N)=O)NC1=O,,"human, plasma","intranasal, 200 µg every 3 h, 11 doses, after second dose",,terminal half-life,27.6 min
CC(=O)N([O-])CCCCCNC(=O)CCC(=O)N([O-])CCCCCNC(=O)CCC(=O)N([O-])CCCCCN.[89Zr+4],,"mouse, fat",1 h,,tracer uptake,0.07 %ID/g
Cc1cc(C)n(CCN(CCN)CCCCCCNC(=O)[C@@H](N)Cc2c[nH]cn2)n1.[99Tc+].[C-]#[O+].[C-]#[O+].[C-]#[O+],,"BALB/c nude mice, A549 xenograft, spleen","intravenous, 4 h",,tissue uptake,0.42 ± 0.09 %IA/g
CCCCN1C(=O)c2cccc3c(NCCCCCCCCN4CCOCC4)ccc(c23)C1=O,,ethyl acetate,,,Stokes shift,84 nm
O=C(Nc1cnccc1-c1ccc([18F])nc1)c1ccnc(NC(=O)C2CC2)c1,ex vivo gamma counting,"FVB/NJ mice, both sexes, caudate nucleus","intravenous, 120 min, with: tariquidar 15 mg/kg iv",,mean SUV,0.082
OCC1OC(n2cnc3c(NCc4ccc(Br)s4)ncnc32)C(O)C1O (centres unmarked),equilibrium dialysis,dog plasma,"5 µg/mL, 4 h, pH 7.4",,fraction unbound,0.119
CC1(C)C(=CC=C2CCCC(C=CC3=[N+](CCC[N+](C)(C)C)c4ccc(S(=O)(=O)O)cc4C3(C)C)=C2SCCOCCOCCC(=O)O)N(CCC[N+](C)(C)C)c2ccc(S(=O)(=O)O)cc21,,DMSO,,,Stokes shift,28 nm
COc1ccc(OC(C)=O)cc1-c1c[nH]c2ncc(-c3cncc(C(=O)N(C)C)c3)cc12,HPLC,acetonitrile/water/DMSO,"50 µM, 37 °C, DIPEA 20 eq, with: N-α-acetyl-lysine",,reactivity half-life,> 1440 min
C=C(NC(=O)c1csc(-c2nc3c(cc2O)-c2nc(cs2)C(=O)NC(C(C)O)C(=O)NC(=C(C)OC)c2nc(cs2)C(=O)NC2c4nc(cs4)C(=O)NC(COC(=O)c4c5c6c(cccc6n4O)COC(=O)C(OC4CC(C)(O)C(N(C)C)C(C)O4)C2OC5)c2nc-3cs2)n1)C(N)=O (centres unmarked),,"female cynomolgus monkey, plasma","intravenous, 1 mg/kg, single dose, infusion",,Tmax,6.6 min
O=C1c2sc(-c3ccc(N4CCC(F)C4)nc3F)nc2CCN1c1cccnc1 (centres unmarked),HPLC,"rhesus monkey, plasma","intravenous, 30.02 min",,parent fraction,0.247
COCC1CN(C2CCN(c3cc(OC)c(Nc4ncc(Br)c(Nc5ccc6c(c5P(C)(C)=O)OCCO6)n4)cc3C)CC2)C1,,"EGFR-mutant NSCLC patients, plasma","oral, 30 mg single dose, geometric mean",,AUC(0-t),4480 ng·h/mL
O=C(Nc1cnccc1-c1ccc([18F])cc1)c1ccnc(NC(=O)C2CC2)c1,ex vivo gamma counting,"GSK-3β transgenic mice, late-stage, small intestine","intravenous, 1.26 MBq/animal, 120 min, mean, no P-gp inhibitor",,SUV,2.16
CC(C)C[C@H](NC(=O)[C@H](CCCN)NC(=O)CNC(=O)[C@@H](NC(=O)[C@H](C)NC(=O)[C@@H]1CSCSC[C@H](NC(=O)CC[C@H](N)C(=O)O)C(=O)N[C@@H](CC(N)=O)C(=O)N[C@@H]([C@@H](C)O)C(=O)N[C@@H](C)C(=O)N[C@@H]([C@@H](C)O)C(=O)N1)[C@@H](C)O)C(=O)N[C@@H](C)C(=O)N[C@@H](CCC(=O)O)C(=O)N[C@@](C)(Cc1ccccc1)C(=O)N[C@@H](CC(C)C)C(=O)N[C@H](C(=O)N[C@@H](CCCNC(=N)N)C(=O)N[C@@H](CO)C(=O)N[C@@H](CO)C(=O)N[C@@H](CC(N)=O)C(=O)N(C)[C@@H](CC(N)=O)C(=O)N[C@@H](Cc1ccccc1)C(=O)NCC(=O)N1CCC[C@H]1C(=O)N[C@@H](CCCCNC(=O)CC[C@H](NC(=O)CC[C@H](NC(=O)CCCCCCCCCCCCCCCCCCC(=O)O)C(=O)O)C(=O)O)C(=O)N[C@@H](CC(C)C)C(=O)N1CCC[C@H]1C(=O)N1CCC[C@H]1C(=O)N[C@H](C(=O)N[C@@H](CCC(=O)O)C(=O)N[C@H](C(=O)NCC(=O)N[C@@H](CO)C(=O)N[C@@H](CC(N)=O)C(=O)N[C@H](C(=O)N[C@@H](Cc1ccc(O)cc1)C(N)=O)[C@@H](C)O)C(C)C)[C@@H](C)O)C(C)C,conditioned taste avoidance,lean male Sprague-Dawley rat,"subcutaneous, 72 h",,ED50,8.9 nmol/kg
N#C[C@@H]1CC(F)(F)CN1C(=O)CNC(=O)c1ccnc2c(NC(=O)[C@@H](N)CCCCNC(=O)CCOCCOCCOCCOCCOCCOCCNC(=O)CN3CCN(CC(=O)[O-])CCN(CC(=O)[O-])CCN(CC(=O)[O-])CC3)cccc12.[177Lu+3],,human serum,"1 h, 37 °C, 177Lu-labelled",,radiochemical stability,99.42 ± 0.5%
COc1ccc2c(c1)CCn1c[n+]3c(c1-2)-c1ccc(OC)cc1CC3,,"female NSG mice, blood","6 mg/kg, day 20, 5 days per week",,Monocytes,14.9 ± 4.98%
CCCCN1C(=O)c2cccc3c(NCCN4CCOCC4)ccc(c23)C1=O,,methanol,,,Stokes shift,81 nm
CCCC[C@H](NC(=O)CNC(=O)CNC(=O)[C@H](CCCCNC(=O)[C@H](CC(=O)O)NC(=O)C(C)c1ccc(CC(C)C)cc1)NC(=O)CN1CCN(CC(=O)O)CCN(CC(=O)O)CCN(CC(=O)O)CC1)C(=O)N[C@H]1CC(=O)NCCCC[C@@H](C(N)=O)NC(=O)[C@H](Cc2c[nH]c3ccccc23)NC(=O)[C@H](CCCNC(=N)N)NC(=O)[C@@H](Cc2ccccc2)NC(=O)[C@H](Cc2c[nH]cn2)NC1=O (some centres unmarked) [lutetium-177 labelled],,"C57 mice, tumour","intravenous, 0.037 MBq, 0.5 h",baseline: liver,tumour-to-tissue ratio,3.9
Cc1n[nH]c(C)c1CCCOc1cc(C(=O)NCCCCC(NC(=O)CN2CCN(CC(=O)[O-])CCN(CC(=O)[O-])CCN(CC(=O)[O-])CC2)C(=O)NCC2CCC(C(=O)NC(Cc3ccc4ccccc4c3)C(=O)NCCCCC(NC(=O)NC(CCC(=O)O)C(=O)O)C(=O)O)CC2)ccc1F.[68Ga+3] (centres unmarked),radio-HPLC,mouse serum,"4 h, 37 °C",,radiochemical purity,96.9 ± 1.05%
O=C1c2sc(-c3ccc(N4CCC(CO)CC4)nc3F)nc2CCN1c1cccnc1,,"CD1 mouse, brain","i.v., dose not given, 0.5 h",,concentration,11.2 ng/g
CC[C@H](C)[C@H](NC(=O)[C@H](Cc1ccc(O)cc1)NC(=O)[C@@H](NC(=O)[C@H](CCCNC(=N)N)NC(=O)[C@@H](N)CC(=O)O)C(C)C)C(=O)N[C@@H](Cc1c[nH]cn1)C(=O)N1CCC[C@H]1C(=O)O,LC-MS/MS,"Sprague-Dawley rat, both sexes, plasma","subcutaneous, 10 mg/kg/day, day 0, 2 h, 120 min",,plasma concentration,1.53 ng/mL
CCCCN1C(=O)c2cccc3c(NCCCCCN4CCOCC4)ccc(c23)C1=O,,toluene,,,Stokes shift,75 nm
Cc1c(-c2ccc(N3CCc4cccc(C(=O)Nc5nc6ccccc6s5)c4C3)nc2C(=O)O)cnn1CC12CC3CC(CC(C3)C1)C2,,anaesthetised rat,"intravenous infusion, 30 mg/kg",baseline: baseline,platelet count,16.7%
COc1cccc(OC)c1-c1cc(C(=O)NC2(C(=O)O)C3CC4CC(C3)CC2C4)nn1-c1ccc(C(=O)N(C)CCCN(C)CCCN(C)C(=O)[C@H](CCCCNC(=O)[C@H](CC(C)C)NC(=O)C2OC2C(=O)O)NC(=O)CN2CCN(CC(=O)[O-])CCN(CC(=O)[O-])CCN(CC(=O)[O-])CC2)cc1C(C)C.[177Lu+3] (mixture of isomers),,mouse HT-29 xenograft,"24 h, biodistribution",baseline: tumour over stomach,tumour-to-stomach ratio,26
C=CC(=O)Nc1cc(Nc2nccc(-c3c[nH]c4ccccc34)n2)c(OC)cc1N(C)CCN(C)C,,human plasma,"72 h, storage stability, low QC sample",,recovery,50.3%
N#C[C@@H]1CC(F)(F)CN1C(=O)CNC(=O)c1ccnc2c(NC(=O)C(CCCCNC(=O)CCOCCOCCOCCOCCOCCOCCNC(=O)CN3CCN(CC(=O)[O-])CCN(CC(=O)[O-])CCN(CC(=O)[O-])CC3)NC(=O)CCCc3ccc(I)cc3)cccc12.[68Ga+3] (some centres unmarked),,human serum,"30 min, 37 °C, 68Ga-labelled",,radiochemical stability,99.05 ± 0.2%
CCCCN1C(=O)c2cccc3c(NCCCCN4CCOCC4)ccc(c23)C1=O,,acetonitrile,,,Stokes shift,89 nm
N#C[C@@H]1CC(F)(F)CN1C(=O)CNC(=O)c1ccnc2c(NC(=O)CCOCCOCCOCCOCCOCCOCCNC(=O)C(CCCCNC(=O)CN3CCN(CC(=O)[O-])CCN(CC(=O)[O-])CCN(CC(=O)[O-])CC3)NC(=O)CCCc3ccc(I)cc3)cccc12.[68Ga+3] (some centres unmarked),,human serum,"30 min, 37 °C, 68Ga-labelled",,radiochemical stability,99.32 ± 0.2%
CN1CCC[C@]1(C)/C=C/S(=O)(=O)NC(=O)Nc1c2c(cc3c1CCC3)CCC2,"refers to: neutrophil count decreased, possibly related",human,"oral, 50 mg twice daily, 14 days, multiple ascending dose",,subjects with adverse event,0%

# Some of these lines once more:
SMILES,test,system,setting,scale,endpoint,result
COc1ccc2c(c1)CCn1c[n+]3c(c1-2)-c1ccc(OC)cc1CC3,,"female NSG mice, blood","6 mg/kg, day 20, 5 days per week",,Monocytes,14.9 ± 4.98%
O=C1c2sc(-c3ccc(N4CCC(F)C4)nc3F)nc2CCN1c1cccnc1 (centres unmarked),HPLC,"rhesus monkey, plasma","intravenous, 30.02 min",,parent fraction,0.247
N#C[C@@H]1CC(F)(F)CN1C(=O)CNC(=O)c1ccnc2c(NC(=O)C(CCCCNC(=O)CCOCCOCCOCCOCCOCCOCCNC(=O)CN3CCN(CC(=O)[O-])CCN(CC(=O)[O-])CCN(CC(=O)[O-])CC3)NC(=O)CCCc3ccc(I)cc3)cccc12.[68Ga+3] (some centres unmarked),,human serum,"30 min, 37 °C, 68Ga-labelled",,radiochemical stability,99.05 ± 0.2%
COc1cccc(OC)c1-c1cc(C(=O)NC2(C(=O)O)C3CC4CC(C3)CC2C4)nn1-c1ccc(C(=O)N(C)CCCN(C)CCCN(C)C(=O)[C@H](CCCCNC(=O)[C@H](CC(C)C)NC(=O)C2OC2C(=O)O)NC(=O)CN2CCN(CC(=O)[O-])CCN(CC(=O)[O-])CCN(CC(=O)[O-])CC2)cc1C(C)C.[177Lu+3] (mixture of isomers),,mouse HT-29 xenograft,"24 h, biodistribution",baseline: tumour over stomach,tumour-to-stomach ratio,26
